Published values gathered from unrelated publications.
Numbered parts are unrelated; each lists some results of a single study. Positions count from the first letter of the parent shown.

Study 1
Target: CCNB3, cyclin fold, Cln2 fusion (human)
Technique: yeast growth competition, sequencing
Sample: yeast
Notes: weak parent motif
Baseline: not given
Reading: higher = stronger binding
Parent: CABLES2 docking peptide (human); ICAKRSLCAAFSV; partner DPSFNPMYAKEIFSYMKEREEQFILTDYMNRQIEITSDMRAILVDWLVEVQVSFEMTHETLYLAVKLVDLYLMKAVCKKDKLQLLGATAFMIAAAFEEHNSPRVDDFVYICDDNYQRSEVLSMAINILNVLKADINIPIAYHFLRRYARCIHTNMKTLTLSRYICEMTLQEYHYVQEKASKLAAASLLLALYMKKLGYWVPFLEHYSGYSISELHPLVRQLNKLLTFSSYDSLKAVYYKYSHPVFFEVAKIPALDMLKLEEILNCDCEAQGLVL
For `ICAKRSLCAAASV [F11A]`, “normalised enrichment score” read 0.246.
`ICAKRSLAAAFSV [C8A]`: “normalised enrichment score” 0.448.
For `ICAKASLCAAFSV [R5A]`, “normalised enrichment score” read 0.192.
`ICAKRALCAAFSV [S6A]` — result for “normalised enrichment score”: 0.553.
Under “normalised enrichment score”, `ICAKRSACAAFSV [L7A]` is recorded as -0.301.

Study 2
Target: RING finger protein unkempt homolog, zinc fingers 1-6, GST-SBP tag (UNK, Homo sapiens, UniProt Q9C0B0, residues 30-357)
UniProt Q9C0B0, sequence (30-357, looked up): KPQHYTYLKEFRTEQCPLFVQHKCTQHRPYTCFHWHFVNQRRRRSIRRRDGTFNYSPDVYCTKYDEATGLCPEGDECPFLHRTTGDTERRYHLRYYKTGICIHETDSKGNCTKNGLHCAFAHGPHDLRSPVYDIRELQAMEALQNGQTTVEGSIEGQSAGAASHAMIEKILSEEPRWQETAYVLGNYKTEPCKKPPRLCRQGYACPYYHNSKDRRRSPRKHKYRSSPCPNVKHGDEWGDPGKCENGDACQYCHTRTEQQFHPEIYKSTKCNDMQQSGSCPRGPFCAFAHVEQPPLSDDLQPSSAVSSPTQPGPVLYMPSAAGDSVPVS
Technique: RNA Bind-n-Seq
Form: RNA
Sample: in vitro
Concentration: not given
Notes: RNA with constant flanks, human and mouse sites, ends assumed
Baseline: input RNA pool
Reading: higher = stronger binding
`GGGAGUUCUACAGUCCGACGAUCUACUAGGUUCUUGAUUCCCUUAUAUGGCAAUCAGGCAGAGGCGUUCCUUAAGCAUUAGAGAGUUCUGAAGCUUAAGAUUUGUUUUGGUUGGAUGAAGUCCUUAGUACAGUUGAAAAACAGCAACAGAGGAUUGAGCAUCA` gave a bound/input enrichment of 0.366 ratio.
The bound/input enrichment of `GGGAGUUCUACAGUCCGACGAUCUUUUAAAAAUAACUAGUGUAGCUUAUCUUAAACAUUUUAUAAAACCUUCAGAUGUCUUUAAGCAGAUUGGAAGUAUGCAAGUGCUUCCUUAGCAGGGACAGUGGAUAAUCCUUAAUGGUUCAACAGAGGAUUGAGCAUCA` is reported as 11.6 ratio.
`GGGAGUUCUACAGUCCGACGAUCACAUUGGGAAAUGUUUUGGUGACUGUCAAAAGGAACUUUGACAAAUGCAUUAGUAACCAAAUAAGGCAAAUGGAAGAAGUAAAGAUCUCAAAAAAGAGUAAAGUUGGAAUUCUUCCAUUUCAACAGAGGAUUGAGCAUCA` gave a bound/input enrichment of 0.46 ratio.
`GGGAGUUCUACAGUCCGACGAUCAACAAGACAGACUUGCUUGAGGAGAAGGUGCAAAUUGUGAGCAUCAAAGACUAUUUCCUAGAAUUUGAAGGGGAUCCCCACUGCUUAAGAGACGUCCAAAAAUUCCUGGUGGAAUGUUUCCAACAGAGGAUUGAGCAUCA` gave a bound/input enrichment of 0.161 ratio.
`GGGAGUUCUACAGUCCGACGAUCAUAAAAGCCAUGUUGAGUGGCCCAGGUCAGUUUGCUGAGAACGAAACCAAUGAGGUCAAUUUUAGAGAGAUACCUUCACAUGUGCUAUCGAAAGUAUGCAUGUAUUUUACGUACAAGGUUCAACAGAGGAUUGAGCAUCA` has a bound/input enrichment of 0.116 ratio.
`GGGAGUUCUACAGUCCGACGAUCUGGAAGUACAUCUUGUGGGAGGCUUCAGUGAUGACAGGCAGCUGUCACAGAAACUUACUCAUCAGCUUCUCAGUGAAUUUGACAAACAGGAUGAUGACAUUCACUUAGUGACAUUAUGUGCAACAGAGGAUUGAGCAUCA` has a bound/input enrichment of 0.232 ratio.
The bound/input enrichment of `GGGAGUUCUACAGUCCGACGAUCUAAGAGAACAGCCAGAUGGUUUAUAUGAAUAAUCUUUAUCUGCAGGAUGGUGGAUUGGUAAAUUAGGAGAAUGUUGUUUGAGAUAUCAAGAUUUAUGUCUGGGAACUAAAAUAUAUAAUGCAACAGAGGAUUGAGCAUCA` is reported as 2.12 ratio.
`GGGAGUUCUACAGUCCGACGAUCUUUUCUUUUUCUUUUUUUUUUCUUUUUUUUGGUUCUUUCUGACUGCUUUGUAAUAAAGAUUUACCAAGUCAUUGUCAGUCUAAGUCACAAAAAUAUCCAGUUUAACAUAAAGCUGUCUGUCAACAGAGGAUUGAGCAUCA` gave a bound/input enrichment of 1.3 ratio.

Study 3
Target: ABI1, truncated, D143A, DHFR fusion (Arabidopsis thaliana)
Technique: DHFR PCA, deep sequencing
Sample: yeast
Notes: methotrexate growth selection, single substitutions
With: (+)-ABA 0.0091 µM
Baseline: wild-type fitted maximum
Reading: higher = stronger binding
Parent: PYL1, truncated, DHFR fusion (Arabidopsis thaliana); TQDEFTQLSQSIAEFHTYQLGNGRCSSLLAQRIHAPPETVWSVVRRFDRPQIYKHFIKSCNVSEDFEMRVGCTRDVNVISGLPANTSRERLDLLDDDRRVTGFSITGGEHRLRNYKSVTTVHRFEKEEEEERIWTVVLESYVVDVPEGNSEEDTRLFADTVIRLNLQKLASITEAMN
Under “relative binding score”, `L93A` is recorded as 3.37%.
`E130K`: “relative binding score” 39.6%.
`L166G` — result for “relative binding score”: -1.94%.
`Q51T` — result for “relative binding score”: 5%.
`V70G`: “relative binding score” 0.729%.
`D144N` — result for “relative binding score”: 6.91%.
Under “relative binding score”, `A170C` is recorded as 17.1%.
`R32A`: “relative binding score” 17.4%.
`T101P` — result for “relative binding score”: -4.09%.
`I12P`: “relative binding score” -6.65%.
For `E38C`, “relative binding score” read -6.43%.
For `D95K`, “relative binding score” read -3.51%.
For `D153Y`, “relative binding score” read 1.75%.
Under “relative binding score”, `P36K` is recorded as 8.16%.
For `R69L`, “relative binding score” read 2.51%.
Under “relative binding score”, `G148A` is recorded as 2.76%.
Under “relative binding score”, `Y18V` is recorded as 1.38%.
Under “relative binding score”, `Q31R` is recorded as 15.1%.
Under “relative binding score”, `A84S` is recorded as 39.9%.
For `C60M`, “relative binding score” read -0.492%.
Under “relative binding score”, `G23I` is recorded as -2.25%.
`L138N` — result for “relative binding score”: -0.894%.
For `I12W`, “relative binding score” read -1.24%.
`G23K`: “relative binding score” 9.56%.
`T73L` — result for “relative binding score”: 9.63%.

Study 4
Target: MAFF, bZIP domain (human)
Technique: DHFR protein complementation
Sample: yeast
Notes: single substitutions, most at no-binding floor
Baseline: wild-type JUN-FOS pair
Reading: higher = stronger binding
Parent: JUN, bZIP domain (human); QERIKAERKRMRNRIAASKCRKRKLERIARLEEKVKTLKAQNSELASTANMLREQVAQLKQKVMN; partner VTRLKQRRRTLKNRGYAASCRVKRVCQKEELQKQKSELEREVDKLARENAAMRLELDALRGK
For `L45K`, the binding fitness was -1.5 natural log.
For `L38H`, the binding fitness was -1.43 natural log.
For `E33N`, the binding fitness was -1.55 natural log.
With `R53M` the binding fitness was -1.53 natural log.
`L52V` has a binding fitness of -1.37 natural log.
For `T48K`, the binding fitness was -1.47 natural log.
With `V35E` the binding fitness was -1.44 natural log.
For `L45G`, the binding fitness was -1.53 natural log.
With `S47P` the binding fitness was -1.54 natural log.
With `K36C` the binding fitness was -1.5 natural log.
For `T48Q`, the binding fitness was -1.48 natural log.
The binding fitness of `A57V` is reported as -1.57 natural log.
For `E32D`, the binding fitness was -1.46 natural log.
For `E33G`, the binding fitness was -1.47 natural log.
The binding fitness of `A46L` is reported as -1.51 natural log.
With `R53D` the binding fitness was -1.53 natural log.
`L45W` has a binding fitness of -1.51 natural log.
For `R53A`, the binding fitness was -1.47 natural log.
`L52T` gave a binding fitness of -1.54 natural log.
`L31F` gave a binding fitness of -1.31 natural log.
For `L45S`, the binding fitness was -1.52 natural log.
With `K34W` the binding fitness was -1.48 natural log.
`I28A` gave a binding fitness of -1.38 natural log.
For `R53G`, the binding fitness was -1.33 natural log.
`R53N` gave a binding fitness of -1.52 natural log.

Repeated from above (study 3):
Under “relative binding score”, `G148A` is recorded as 2.76%.
`G23K`: “relative binding score” 9.56%.
`D144N` — result for “relative binding score”: 6.91%.
`I12P`: “relative binding score” -6.65%.
`V70G`: “relative binding score” 0.729%.
